Measurements pooled from the literature.
Numbered parts are unrelated; each lists some results of a single study.

Block 1 — technique: universal PBM; molecule type: double-stranded DNA, one strand shown; matrix: in vitro; concentration: not given; reading: higher = stronger binding
Target: Sal-like protein 4, full length isoform B (SALL4, Homo sapiens, UniProt Q9UJQ4-2, residues 1-616)
Setting: 8-mer, flanks averaged, mean of replicates
Target sequence (chain): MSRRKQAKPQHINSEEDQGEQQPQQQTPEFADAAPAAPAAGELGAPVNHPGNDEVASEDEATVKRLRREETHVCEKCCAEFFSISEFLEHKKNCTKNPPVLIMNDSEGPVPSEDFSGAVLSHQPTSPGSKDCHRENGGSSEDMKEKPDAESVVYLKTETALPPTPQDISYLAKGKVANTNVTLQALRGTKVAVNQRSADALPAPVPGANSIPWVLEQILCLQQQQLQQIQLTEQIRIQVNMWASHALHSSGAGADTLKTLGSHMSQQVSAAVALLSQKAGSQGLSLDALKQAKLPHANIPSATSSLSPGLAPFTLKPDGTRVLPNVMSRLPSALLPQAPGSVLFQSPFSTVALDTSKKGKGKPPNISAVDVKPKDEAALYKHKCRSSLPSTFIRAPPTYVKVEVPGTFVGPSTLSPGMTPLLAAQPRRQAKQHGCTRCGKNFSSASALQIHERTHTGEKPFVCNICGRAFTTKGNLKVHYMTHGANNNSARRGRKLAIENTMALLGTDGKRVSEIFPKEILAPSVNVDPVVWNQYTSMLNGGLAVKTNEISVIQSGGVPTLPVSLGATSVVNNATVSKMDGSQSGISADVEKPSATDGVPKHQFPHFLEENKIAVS
| Sequence | E-score |
| --- | --- |
| CCATTAAA | 0.151 |
| AGCACCTC | -0.225 |
| GCTGGCGA | -0.192 |

Block 2 — technique: protein-binding microarray; molecule type: double-stranded DNA, one strand shown; matrix: in vitro; concentration: 0.8 µM; setting: whole 60-bp probe, no competitor; reading: higher = stronger binding
Target: Centromere-binding protein 1, full length, N-terminal tag (CBF1, Saccharomyces cerevisiae, UniProt P17106, residues 1-351)
Chain of UniProt P17106 (whole entry, looked up): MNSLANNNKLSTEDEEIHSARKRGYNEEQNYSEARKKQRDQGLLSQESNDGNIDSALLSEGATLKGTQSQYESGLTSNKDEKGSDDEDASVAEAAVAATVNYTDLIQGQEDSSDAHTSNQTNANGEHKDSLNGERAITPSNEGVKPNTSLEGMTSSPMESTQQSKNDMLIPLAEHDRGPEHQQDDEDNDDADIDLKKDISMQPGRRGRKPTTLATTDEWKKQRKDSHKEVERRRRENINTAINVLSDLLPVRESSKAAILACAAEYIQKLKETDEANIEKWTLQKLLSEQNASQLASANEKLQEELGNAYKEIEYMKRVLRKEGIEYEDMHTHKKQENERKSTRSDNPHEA
| Sequence | fluorescence intensity |
| --- | --- |
| CTATGCTCTCTGTATCACGGGTCTACTAGCAGGTTCGTCTTGATTCGCTTGACGCTGCTG | 1140 a.u. |
| CTAAAAAGACTAAGGCGGGTGAGGGGAATTGAATTCGTCTTGATTCGCTTGACGCTGCTG | 473 a.u. |
| TGTACGAAGCTATTTCGTGCTCCTATAGTAGTTAGGGTCTTGATTCGCTTGACGCTGCTG | 525 a.u. |
| GAAGGGTGTGGGTGTGGTGTGGGTGTGTGGGTGTAGGTCTTGATTCGCTTGACGCTGCTG | 526 a.u. |

Block 3 — technique: protein binding microarray; molecule type: double-stranded DNA, one strand shown; matrix: in vitro; concentration: not given; relative to: not given; reading: higher = stronger binding
Target: Histone acetyltransferase KAT6A, both winged helices, GST fusion (KAT6A, Homo sapiens, UniProt Q92794, residues 1-181)
Setting: 8-mer, flanks averaged, mean of 2 arrays, mostly near background
Construct (chain): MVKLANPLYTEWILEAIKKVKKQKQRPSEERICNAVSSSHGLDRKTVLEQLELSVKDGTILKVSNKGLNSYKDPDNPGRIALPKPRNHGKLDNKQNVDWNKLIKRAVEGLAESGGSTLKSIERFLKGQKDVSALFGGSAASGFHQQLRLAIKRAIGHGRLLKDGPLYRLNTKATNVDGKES
| Sequence | E-score |
| --- | --- |
| AATCCGAT | 0.155 |
| CTGCACTA | -0.00737 |
| AATAGCCG | 0.168 |
| GAATAACA | -0.0473 |
| CAAAATTC | -0.00834 |

Single results of other studies
| Substance | target | test | system | setting | how to read | endpoint | result |
| --- | --- | --- | --- | --- | --- | --- | --- |
| PhoQ, residues 284 288 289 292 302 303 SCKMEA | PhoP, residues 12 14 15 18 19 LWHVM (Escherichia coli, UniProt P23836) | Sort-seq, measured: YFP reporter | E. coli | PhoQ-PhoP variant library, with: 10 µM Mg2+ | relative to: high Mg2+ state, higher = stronger signaling | fold induction | 2.3 |

A few entries again (block 1):
| Sequence | E-score |
| --- | --- |
| CCATTAAA | 0.151 |
| AGCACCTC | -0.225 |
